Earlier results as cited in several papers.
Protocols differ between the studies behind these lines. Numbers after ± are the reported error.
Tubulin alpha-1B chain/TUBB2B: Tubulin alpha-1B chain/TUBB2B (Bos taurus, UniProt P81947+Q6B856)

CNCCNC(=O)CN1C(=O)Cc2c([nH]c3ccc(Br)cc23)-c2ccc(Cl)cc21
inhibition (Trypanothione synthetase (Trypanosoma brucei brucei, UniProt Q8IEX1); enzyme activity; 30 µM): 40 to 60%

CC(=O)Nc1ccc(/N=N/c2ccc(OC[C@@H](O)CNC(C)C)cc2)cc1
inhibition (Beta-2 adrenergic receptor (ADRB2, Homo sapiens, UniProt P07550); inhibitor; concentration not given): inactive

C#CCOc1ccc(/C=C2\SC(=O)N(CC(=O)NCc3ccccc3)C2=O)cc1
inhibition (aldose reductase; 10 µM): ~8.8%

CCOC(=O)C(NC(=O)CN1C(=O)N/C(=C\c2ccc3c(c2)OCO3)C1=O)C(C)C (stereo not drawn)
inhibition (α-glucosidase; enzyme activity; 100 µM): 28.3 ± 17.3%

C=CCC(=N)NCCC[C@H](N)C(=O)O
inhibition (Nitric oxide synthase 1 (Nos1, Rattus norvegicus, UniProt P29476); NMDA-evoked cGMP accumulation; 0.1 µM): 80 to 90%

CCC1=C(O)c2c(oc(-c3ccc(OC)c4ccccc34)cc2=O)C(CC)(CC)C1=O
inhibition (Tubulin alpha-1B chain/TUBB2B; concentration not given): 31%

CCOC(=O)C(NC(=O)CN1C(=O)/C(=C/c2ccc([N+](=O)[O-])cc2)SC1=S)C(C)C (stereo not drawn)
inhibition (α-glucosidase; enzyme activity; 100 µM): 20.8 ± 13.9%

CCC1=C(O)c2c(oc(-c3cccc4ccccc34)cc2=O)C(CC)(CC)C1=O
inhibition (Tubulin alpha-1B chain/TUBB2B; concentration not given): 43%

Cc1ccc(-c2nc3ccc(NC(=O)CCl)cc3[nH]2)cc1
inhibition (EGFR; inhibitor; concentration not given): 88%

N#Cc1c(NC(=O)CN2CCSCC2)c(C(=O)c2ccccc2)n2c1CCC2
inhibition (Epidermal growth factor receptor (EGFR, Homo sapiens, UniProt P00533); 10 µM): 97.6%

O=C(O)C1Nc2c(I)cccc2C2C=CCC12 (stereo not drawn)
inhibition (glucokinase (Trypanosoma cruzi); enzyme activity, inhibitor; 20 µM): 74%

CCOC(=O)CNC(=O)CN1C(=O)S/C(=C\c2ccc(C)cc2)C1=O
inhibition (α-glucosidase; enzyme activity; 100 µM): 51.3 ± 3.62%

Repeated from above:
CCC1=C(O)c2c(oc(-c3cccc4ccccc34)cc2=O)C(CC)(CC)C1=O
inhibition (Tubulin alpha-1B chain/TUBB2B; concentration not given): 43%
